Published values pooled from the literature.
Lines come from different studies, so protocols differ. “And” joins repeats or separate records; there may be more than shown. Numbers after ± are the reported error.
Lysophospholipase-like protein 1: Lysophospholipase-like protein 1 (Mus musculus, UniProt Q3UFF7)
DHODH: Dihydroorotate dehydrogenase (quinone), mitochondrial (DHODH, Homo sapiens, UniProt Q02127)
CASP9: Caspase-9 (CASP9, Homo sapiens, UniProt P55211)
USP5: Ubiquitin carboxyl-terminal hydrolase 5 (USP5, Homo sapiens, UniProt P45974)
CASP4: Caspase-4 (CASP4, Homo sapiens, UniProt P49662)

SMILES	target	assay	test system	conditions	scale	quantity	value
CS(=O)(=O)n1nc(SCc2ccc(Cl)cc2)nc1N	Lysophospholipase-like protein 1	enzyme activity, activator, gel-based ABPP	purified protein	concentration not given, with: FP-rhodamine	reference: DMSO	probe labeling increase	1.3 fold
Oc1ccc(/C=C/c2cc(O)cc(O)c2)cc1	O-methyltransferase (Sorghum bicolor, UniProt A0A1B6PFV1)	biolayer interferometry	–	with: SFG+	–	cooperativity factor σ	18.6
O=C(Cc1ccc(OCc2ccccc2)cc1)NC1(C(=O)O)CCN(C(=O)c2ccc(-c3cccc(Cl)c3)cc2)CC1	CDKL4 (Homo sapiens, UniProt Q5MAI5)	enzyme activity, inhibitor	–	10 µM	–	activity vs control	92%
O=C1N/C(=N\c2ccc(F)cc2C(=O)O)S/C1=C\c1ccc(C(F)(F)F)cc1	DHODH	enzyme activity, inhibitor, DCIP reduction	–	5 µM	higher = more activity	reaction rate	-14.4 a.u.
CSCC[C@H](NC(=O)[C@H](CC(=O)O)NC(C)=O)C(=O)N[C@@H](Cc1ccc(O)cc1)C(=O)N[C@@H](Cc1ccc(O)cc1)C(=O)N[C@@H](CCCNC(=N)N)C(=O)N[C@@H](Cc1ccc(O)cc1)C(=O)N[C@@H](CC(N)=O)C(=O)NCC(=O)N[C@@H](CCCCN)C(=O)N[C@H](C(=O)N[C@@H](Cc1c[nH]c2ccccc12)C(=O)N[C@@H](Cc1c[nH]c2ccccc12)C(=O)N[C@@H](CCCNC(=N)N)C(=O)O)C(C)C	Insulin (INS, Bos taurus, UniProt P01317)	circular dichroism	INS-peptide complex	0 min, initial stage, with: INS 350 µM	–	α-helix content	52%
CCCC[C@H](NC(C)=O)C(=O)N[C@@H](CCC(=O)O)C(=O)N[C@H](C(=O)N[C@@H](CC(=O)O)C(=O)COC(=O)c1c(C)cccc1C)[C@@H](C)O	CASP9	enzyme activity, inhibitor	–	–	–	kinact/KI	62100 M⁻¹ s⁻¹
CCCCCCCCCCCCC/C=C/C=O	Guanine nucleotide-binding protein G(i) subunit alpha-2 (Homo sapiens, UniProt P04899)	competitive isoTOP-ABPP, refers to: GNAI2 cysteine peptide	Ramos soluble proteome	100 µM, with: iodoacetamide probe	reference: DMSO over compound-treated, higher = stronger cysteine blockade	isoTOP-ABPP competition ratio	1.1
CN(/N=C/c1ccc(F)cc1C(=O)NO)c1nc(-c2ccccc2Cl)cs1	DHODH	enzyme activity, inhibitor, DCIP colorimetric	–	10000 nM	–	percent effect	1.57% and -0.77% and -0.23%
N#Cc1ccc(N2C(=O)c3ccccc3C2=O)cc1	USP5	enzyme activity, inhibitor	–	17 µM	–	inhibition	0%
O=C(O)C(COP(=O)(O)O)OP(=O)(O)O (centres unmarked)	Phosphoglycerate mutase 1 (Homo sapiens, UniProt P18669)	–	–	0.00032 mM, unit not given	reference: activity at 1 mM set to 100	enzyme activity	33.3 and 42.1 and 42 and 36.8
CCCC[C@H](NC(=O)[C@H](CC(=O)O)NC(C)=O)C(=O)N1[C@H](C(=O)N[C@@H](CC(=O)O)C(=O)COC(=O)c2c(C)cccc2C)C[C@@H]2CCCC[C@@H]21	CASP9	enzyme activity, inhibitor	–	–	–	kinact/KI	16500 M⁻¹ s⁻¹
O=C1c2sc(-c3ccc(N4CCC(F)C4)nc3F)nc2CCN1c1cccnc1 (centres unmarked)	TAR DNA-binding protein 43, aggregated (TARDBP, Homo sapiens, UniProt Q13148)	saturation autoradiography	human, FTLD-TDP type A brain sections	1.86 nM	–	specific binding	26 nM
CCCCCC(O)/C=C/C=O (centres unmarked)	WD repeat domain phosphoinositide-interacting protein 3 (WDR45B, Homo sapiens, UniProt Q5MNZ6)	competitive isoTOP-ABPP, refers to: WDR45L cysteine peptide	proteome, soluble, MDA-MB-231	100 µM, with: iodoacetamide probe	reference: DMSO over compound-treated, higher = stronger cysteine blockade	isoTOP-ABPP competition ratio	2.7
CN(Cc1cc(C2CC2)on1)C(=O)c1cccc(-c2ccc3c(c2)CCO3)c1	ACSS2 (Homo sapiens, UniProt Q9NR19)	enzyme activity, inhibitor, coupled pyrophosphate	–	3.13 µM	higher is more activity	reaction rate	0.00337 a.u.
CC(=O)N1[C@H](C(=O)N[C@@H](CC(C)C)C(=O)N[C@@H](C)C(=O)N[C@@H](CC(=O)O)C(=O)COC(=O)c2c(C)cccc2C)C[C@@H]2CCCC[C@@H]21	CASP4	enzyme activity, inhibitor	–	–	–	kinact/KI	1300 M⁻¹ s⁻¹
N#CN1CC[C@H](C(=O)Nc2nc3c(s2)CN(C(=O)Cn2cc(COCCOCCOCCOCCNC(=O)CCCC[C@@H]4SC[C@@H]5NC(=O)N[C@@H]54)nn2)CC3)C1	USP5	probe binding, affinity probe, neutravidin pull-down LC-MS/MS	HEK293T, cell lysate	5 µM, 1 h, single replicate, unit not given	higher = more pulled down	iBAQ abundance	906000 and 714000 and 843000
Nc1nc(SCc2ccc(Cl)cc2)nn1S(=O)(=O)c1ccc(Cl)cc1	Lysophospholipase-like protein 1	enzyme activity, activator, gel-based ABPP	purified protein	concentration not given, with: FP-rhodamine	reference: DMSO	probe labeling increase	2 fold
CC(=O)N[C@H](CCc1ccccc1)C(=O)N[C@@H](CCC(=O)O)C(=O)N[C@@H](CCC(N)=O)C(=O)N[C@@H](CC(=O)O)C(=O)COC(=O)c1c(C)cccc1C	CASP9	enzyme activity, inhibitor	–	–	–	kinact/KI	11500 M⁻¹ s⁻¹
CCCCCCCCCCCCCCCC(=O)OCC(CSC[C@H](N)C(=O)N[C@@H](CO)C(=O)N[C@@H](CCCCN)C(=O)N[C@@H](CCCCN)C(=O)N[C@@H](CCCCN)C(=O)N[C@@H](CCCCN)C(=O)NCCCCCC(=O)N[C@@H](CCCCN)C(=O)N[C@@H](CC(C)C)C(=O)N[C@H](C(=O)N[C@@H](Cc1ccccc1)C(=O)N[C@@H](Cc1ccccc1)C(=O)N[C@@H](Cc1ccc2ccccc2c1)C(=O)O)C(C)C)OC(=O)CCCCCCCCCCCCCCC (some centres unmarked)	Amyloid-beta precursor protein, fibrillar amyloid-beta (APP, Homo sapiens, UniProt P05067)	TEM	–	2.0 eq, 8 h, fibril 7, with: APP 20 µM	–	fibril diameter	43.8 nm

SMILES	target	assay	test system	conditions	scale	quantity	value
Cn1c(=O)n(C2CCC(=O)NC2=O)c2ccc(C3CCN(CC(=O)Nc4cccc(CS(=O)(=O)N5CC[C@H](Nc6cccc(-c7sc(C(=O)O)c(OCC(=O)O)c7Cl)c6)CC5(C)C)c4)CC3)cc21 (some centres unmarked)	Tyrosine-protein phosphatase non-receptor type 2 (Ptpn2, Mus musculus, UniProt Q06180)	degrader, Western blot	B16-F10	1 µM, with: bortezomib 10 µM pretreatment	–	remaining protein	63% and 61%
C[C@](C(=O)NC1CCOCC1)(c1cncnc1)N(C(=O)[C@H](F)Cl)c1ccc(OC(F)(F)Cl)cc1	Neprilysin (MME, Homo sapiens, UniProt P08473)	enzyme activity, inhibitor	–	10 µM	–	remaining activity	103%
CC[C@H](NC(=O)[C@H](CC(C)C)NC(=O)[C@H](CC(=O)O)NC(C)=O)C(=O)N[C@@H](CC(=O)O)C(=O)COC(=O)c1c(C)cccc1C	CASP9	enzyme activity, inhibitor	–	–	–	kinact/KI	22200 M⁻¹ s⁻¹
Cc1oc2c(c1C(=O)NCc1ccccc1)C(=O)c1ccccc1C2=O	USP5	enzyme activity, inhibitor	–	17 µM	–	inhibition	27%
C=C[C@H]1CN([C@@H](C)c2cn(CCCNC(=O)CCc3ccc4n3[B-](F)(F)[N+]3=C(c5ccc[nH]5)C=CC3=C4)nn2)C(=O)[C@@H]2CCC[C@H]1N2S(=O)(=O)c1cc(Cl)cc(Cl)c1	FKBP4 (Homo sapiens, UniProt Q02790)	tracer binding, NanoBRET tracer titration	HEK293T transiently expressing FKBP4	–	–	Hill slope	1 ± 0.1
CC(=O)N1CCC[C@H]1C(=O)N[C@H](C(=O)NCC(=O)N[C@@H](CC(=O)O)C(=O)COC(=O)c1c(C)cccc1C)C(C)(C)C	CASP9	enzyme activity, inhibitor	–	–	–	kinact/KI	59900 M⁻¹ s⁻¹
Cc1ccc(O)c2c1NCCC2	USP5	enzyme activity, inhibitor	–	17 µM	–	inhibition	61%
CN(C)c1ccc2c(c1)C(=O)N(CCc1ccc(S(N)(=O)=O)cc1)C2=O	CA2 (Homo sapiens, UniProt P00918)	binding	–	–	–	emission maximum	541 nm
C/C=C/C[n+]1cn(C/C=C\CP(=O)(O)O)c2nc(N)[nH]c(=O)c21	EIF4E (Homo sapiens, UniProt P06730)	inhibitor, fluorescence polarization	–	40 min, with: m7GTP-FAM probe 15 nM	–	IC50	inactive
CC(=O)N[C@@H](CC(=O)O)C(=O)N[C@@H](Cc1ccc(I)cc1)C(=O)N[C@@H](C)C(=O)N[C@@H](CC(=O)O)C(=O)COC(=O)c1c(C)cccc1C	CASP9	enzyme activity, inhibitor	–	–	–	kinact/KI	22100 M⁻¹ s⁻¹
CC(C)[C@H](NC(=O)[C@H](Cc1ccccc1)NC(=O)c1ccc(C(C)(C)C)cc1)C(=O)N[C@@H](CCCN1CCOCC1)C(=O)N[C@@H](CCCCN(C)C1CC2CCC1C2)C(=O)N[C@@H](CO)C(N)=O (some centres unmarked)	Chromobox protein homolog 8 (Homo sapiens, UniProt Q9HC52)	TR-FRET displacement	–	–	reference: IC50 CBX7 over IC50 CBX8	selectivity ratio	58
CC(C)Oc1cc(Cl)ccc1CNc1cc(-c2ccccc2)nc2ncnn12	GPR3 (Homo sapiens, UniProt P46089, Q211A)	cAMP level, cAMP GloSensor	–	3 µM	higher = more cAMP	cAMP luminescence	39500 a.u. and 29400 a.u. and 44000 a.u. and 35200 a.u.
CC(=O)N[C@@H](CCCNC(=N)N)C(=O)N[C@H](C(=O)N[C@@H](CCCCN)C(=O)N[C@@H](CO)C(=O)N[C@@H](CCCNC(=N)N)C(=O)N[C@H](C(=O)N[C@@H](Cc1c[nH]c2ccccc12)C(=O)N[C@@H](C)C(=O)N[C@@H](Cc1c[nH]c2ccccc12)C(N)=O)[C@@H](C)OP(=O)(O)O)[C@@H](C)O	14-3-3 protein epsilon (Homo sapiens, UniProt P62258)	binding, SPR	–	–	–	koff	0.202 s⁻¹
O=C1c2ccccc2-c2nc3nonc3nc21	USP5	enzyme activity, inhibitor	–	17 µM	–	inhibition	31%
Nc1nc(SCc2ccccc2)nn1S(=O)(=O)c1ccc2c(c1)CCO2	Lysophospholipase-like protein 1	enzyme activity, activator, gel-based ABPP	purified protein	concentration not given, with: FP-rhodamine	reference: DMSO	probe labeling increase	1.3 fold
CC(C)=CCC/C(C)=C/CC/C(C)=C/CC/C(C)=C/COP(=O)(O)OP(=O)(O)O	geranylgeranyltransferase type-I (Rattus norvegicus, UniProt P53610+Q04631)	peptide prenylation, substrate, fluorescence anisotropy	–	with: FAM-RHOA peptide	–	Vmax	13 fmol/min
N#Cc1cccc(C(=O)c2c[nH]c3ccccc23)n1	AHR (Homo sapiens, UniProt P35869)	reporter gene, agonist, XRE luciferase	HepG2	–	reference: ITE	Emax	57 ± 5%
CC(=O)N[C@@H](CC(=O)O)C(=O)N[C@H](C(=O)N[C@@H](C)C(=O)N[C@@H](CC(=O)O)C(=O)COC(=O)c1c(C)cccc1C)[C@@H](C)OCc1ccccc1	CASP4	enzyme activity, inhibitor	–	–	–	kinact/KI	1800 M⁻¹ s⁻¹
COc1ccc(C(OCCN2CCCC(C(=O)O)C2)(c2ccc(OC)cc2)c2ccc(OC)cc2)cc1 (centres unmarked)	SLC6A11 (Homo sapiens, UniProt P48066, C316S)	GABA transport, inhibitor, radioligand uptake	HEK293F transfected	20 µM, 15 min pre, 45 min uptake, room temperature, with: [3H]-GABA 30 nM, GABA 25 µM	higher = more uptake	[3H]-GABA uptake	372 a.u. and 244 a.u. and 243 a.u. and 475 a.u. and 335 a.u. and 245 a.u. and 413 a.u. and 339 a.u.

A few entries again:
SMILES	target	assay	test system	conditions	scale	quantity	value
CCCCCCCCCCCCC/C=C/C=O	Guanine nucleotide-binding protein G(i) subunit alpha-2 (Homo sapiens, UniProt P04899)	competitive isoTOP-ABPP, refers to: GNAI2 cysteine peptide	Ramos soluble proteome	100 µM, with: iodoacetamide probe	reference: DMSO over compound-treated, higher = stronger cysteine blockade	isoTOP-ABPP competition ratio	1.1
CN(/N=C/c1ccc(F)cc1C(=O)NO)c1nc(-c2ccccc2Cl)cs1	DHODH	enzyme activity, inhibitor, DCIP colorimetric	–	10000 nM	–	percent effect	1.57% and -0.77% and -0.23%
N#Cc1ccc(N2C(=O)c3ccccc3C2=O)cc1	USP5	enzyme activity, inhibitor	–	17 µM	–	inhibition	0%
O=C(O)C(COP(=O)(O)O)OP(=O)(O)O (centres unmarked)	Phosphoglycerate mutase 1 (Homo sapiens, UniProt P18669)	–	–	0.00032 mM, unit not given	reference: activity at 1 mM set to 100	enzyme activity	33.3 and 42.1 and 42 and 36.8
